Results collected from several papers.
A part holds a random share of what one study measured.

Study 1
Target: Replicase polyprotein 1ab, nsp13 helicase (rep, Severe acute respiratory syndrome coronavirus 2, UniProt P0DTD1)
Mode: inhibitor
Concentration: 20 µM
Quantity: inhibition
SMILES = CCCCN(CCCC)CCC(O)c1cc2c(Cl)cc(Cl)cc2c2cc(C(F)(F)F)ccc12 (stereo not shown); value = 7.09%
SMILES = Cc1cc2ncc(C(=O)NCC(C)(C)NCC(=O)N3CCC[C@H]3C#N)cn2n1; value = -1.18%
SMILES = C#CCN[C@@H]1CCc2ccccc21; value = 3.24%
SMILES = CN(C)CCN(Cc1ccccc1)c1ccccn1; value = 3.51%
SMILES = CCCOC(C(=O)OC1CCN(C)CC1)(c1ccccc1)c1ccccc1; value = 0.45%
SMILES = Cc1ccc([N+](=O)[O-])cc1S(=O)(=O)N(C)/N=C/c1cnc2ccc(Br)cn12; value = 7.58%
SMILES = CC#CCn1c(N2CCC[C@@H](N)C2)nc2c1c(=O)n(Cc1nc(C)c3ccccc3n1)c(=O)n2C; value = -0.01%
SMILES = Cc1ccc(Nc2c(F)cccc2Cl)c(CC(=O)O)c1; value = -0.03%
SMILES = O=C(c1ccc(F)cc1)C1CCN(CCCCc2ccccc2)CC1; value = 4.85%
SMILES = CCc1c(-c2ccccc2)c(-c2ccccc2)nn1-c1ccccc1-c1cccc(OCC(=O)O)c1; value = 40.9%
SMILES = CC[N+](C)(CC)CCOC(=O)C(O)(c1ccccc1)C1CCCCC1 (stereo not shown); value = 5.65%
SMILES = N[C@@H](C(=O)O)c1nn[nH]n1 (racemic); value = 2.99%
SMILES = O=C(O)C(Cc1c[nH]c2ccccc12)N1C(=O)c2ccccc2C1=O (stereo not shown); value = -0.57%
SMILES = N=C(N)c1ccc(/C=C/c2ccc(C(=N)N)cc2O)cc1; value = 16.4%
SMILES = CCC1=C[C@@H]2CN3CCc4c([nH]c5ccccc45)[C@@](C(=O)OC)(C2)[C@@H]13; value = 5.21%
SMILES = CN1C[C@@H]2CN(c3ccc(-c4ccccc4)nn3)C[C@@H]2C1; value = 6.04%
SMILES = O=C(O)c1ccc(-c2ccc3cc(O)c(C45CC6CC(CC(C6)C4)C5)cc3c2)cc1; value = 5.88%
SMILES = O=c1oc2cc(O)ccc2s1; value = 3.77%
SMILES = COc1ccc(-c2ccc3ncc4c(c3c2)n(-c2ccc(N3CCNCC3)c(C(F)(F)F)c2)c(=O)n4C)cn1; value = 20.9%
SMILES = COc1ccc(-c2cc(=S)ss2)cc1; value = 7.57%
SMILES = O=C(O)c1cccc(-c2noc(-c3ccccc3F)n2)c1; value = -3.85%
SMILES = O=C1CCC[C@@H]2[C@H]3CCCN4CCC[C@@H](CN12)[C@@H]34; value = 6.28%
SMILES = CC(C)(N)c1cc(C(=O)N[C@@H]2CCc3ccc(Oc4ccnc5c4CCC(=O)N5)cc3C2)cc(C(F)(F)F)c1; value = 0.42%
SMILES = C[C@H]1[C@H](OC(=O)CCC(=O)O)O[C@@H]2O[C@@]3(C)CC[C@H]4[C@H](C)CC[C@@H]1[C@@]24OO3; value = 2.51%

Study 2
Target: Hepatocyte nuclear factor 3-alpha (Foxa1, Mus musculus, UniProt P35582, residues 1-468, full length assumed)
Technique: EMSA with sequencing
Molecule type: double-stranded DNA, one strand shown
Medium: in vitro
Concentration: 10 and 20 nM
Setting: whole designed probe, mean of two concentrations, ends assumed
Baseline: negative control set to 0
Reading: higher = stronger binding
Quantity: normalised bound fraction
Target sequence (chain): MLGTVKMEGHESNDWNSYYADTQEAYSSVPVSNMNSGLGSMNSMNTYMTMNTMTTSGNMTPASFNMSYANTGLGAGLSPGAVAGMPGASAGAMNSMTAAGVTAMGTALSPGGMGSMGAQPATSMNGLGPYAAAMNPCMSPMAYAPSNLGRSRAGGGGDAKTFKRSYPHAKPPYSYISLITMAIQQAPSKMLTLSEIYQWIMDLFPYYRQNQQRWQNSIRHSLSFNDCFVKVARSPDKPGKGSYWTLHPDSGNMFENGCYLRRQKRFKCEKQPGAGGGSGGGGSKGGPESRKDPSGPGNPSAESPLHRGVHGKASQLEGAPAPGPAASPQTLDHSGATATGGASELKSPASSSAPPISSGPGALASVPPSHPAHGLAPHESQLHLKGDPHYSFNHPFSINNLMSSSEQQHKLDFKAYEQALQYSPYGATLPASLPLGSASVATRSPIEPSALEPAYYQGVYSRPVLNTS
Sequence = GTGAGCGGTGCCCATTGATGGGGAACAGGTGAAGTCGGCACCCTTGTCTTTGAGCTCACACAGGTGGCTGAGCTAAATAAGTGCTGAAAGGAGCTGGGTGCACTCTCCTGAGTCACCTTTGTTGACTCTGGAAGCACTGTAAACTTGGCATCAGAAGGAGATTATAAAGTGCTTTTGTTCCTAAGCTTTATAAAGTGTGTGTGTATGCATGTGGGTTTCTTTCACTGGGATCGTGGGGAC; value = 0.175 ratio
Sequence = GTGAGCGGTGCCCATTGATGGGGAACGTCTCTAAGAATCATAAGGGTGTGAAATAATTGATTTCCAGGTTTCACAAGCAATGAAGGACTTTCTGCTTAATACTGAGCTGTATTATTTTTGTTTACATTGTGCCCATCTATGATTTCATTTGGAAAAAGAAAGTTTAGCTATCAAAATATTTCAAAACTAAACTCTAAAAAACCTATCTAAGGTGTCTTATTTCACTGGGATCGTGGGGAC; value = 0.437 ratio
Sequence = GTGAGCGGTGCCCATTGATGGGGAACAAGAATTTATACATATGCTTTTCAATATCTGCCCTATTTTTTCTTTTGTATTTAAAAAAAATAAAATTCTAAAGAGAGTAAAAATGTACAATGTAAACATGTTGGTACAAAGAAGCTGAGAAGAGGATTTATTTTATATGTTATGAAGTATGAAATTTAGATATATAAGTAAGGTCTTGGAGAGAAGTTGTACTTTCACTGGGATCGTGGGGAC; value = 0.331 ratio
Sequence = GTGAGCGGTGCCCATTGATGGGGAACATAGCATCCTCCCATCAGCTTTGACACTTACTGTCTTAGGATCATGATTTGCTATTCTTTATAAGGATCATTTTTCTCATTATCAGTCAACATGTTTACATTGAAATAGATACACTCTTCTATTTCAGTTATAGTTAGTTGAGACATAATCTCACTTTTGAAACCTTAACTACATATGTTATAAAACCTGTATTTTCACTGGGATCGTGGGGAC; value = 0.23 ratio

Study 3
Target: Replicase polyprotein 1ab, main protease (rep, Severe acute respiratory syndrome coronavirus 2, UniProt P0DTD1)
Read-out: enzyme activity
Mode: inhibitor
Concentration: 20 µM
Setting: hit confirmation, with DTT
Quantity: inhibition
SMILES = C/C=C1/[C@H](O[C@@H]2O[C@H](CO)[C@@H](O)[C@H](O)[C@H]2O)OC=C(C(=O)OC)[C@H]1CC(=O)OCCc1ccc(O)c(O)c1; value = -15.3%
SMILES = c1ccc2sc(SN3CCOCC3)nc2c1; value = -2.9%
SMILES = C[n+]1c2cc(N)ccc2cc2ccc(N)cc21.Nc1ccc2cc3ccc(N)cc3nc2c1; value = 68.2%

Study 4
Cell line: HEK-293T-ACE2
Concentration: concentration not given
Baseline: vehicle
Quantity: cell number
SMILES = Cc1nc2c([nH]1)-c1ccccc1N(C(=O)c1ccc(NC(=O)c3ccccc3-c3ccccc3)cc1)CC2.Cl; value = 99.3%
SMILES = CNC(=O)c1ccc(N2C(=S)N(c3ccc(C#N)c(C(F)(F)F)c3)C(=O)C2(C)C)cc1F; value = 102%
SMILES = CNC[C@H](O)[C@@H](O)[C@H](O)[C@H](O)CO.CNC[C@H](O)[C@@H](O)[C@H](O)[C@H](O)CO.C[C@@H](O[C@H]1OCCN(Cc2nn(P(=O)(O)O)c(=O)[nH]2)[C@H]1c1ccc(F)cc1)c1cc(C(F)(F)F)cc(C(F)(F)F)c1; value = 99.1%

Study 5
Target: RING finger protein unkempt homolog, zinc fingers 1-6, GST-SBP tag (UNK, Homo sapiens, UniProt Q9C0B0, residues 30-357)
UniProt Q9C0B0, sequence (30-357, looked up): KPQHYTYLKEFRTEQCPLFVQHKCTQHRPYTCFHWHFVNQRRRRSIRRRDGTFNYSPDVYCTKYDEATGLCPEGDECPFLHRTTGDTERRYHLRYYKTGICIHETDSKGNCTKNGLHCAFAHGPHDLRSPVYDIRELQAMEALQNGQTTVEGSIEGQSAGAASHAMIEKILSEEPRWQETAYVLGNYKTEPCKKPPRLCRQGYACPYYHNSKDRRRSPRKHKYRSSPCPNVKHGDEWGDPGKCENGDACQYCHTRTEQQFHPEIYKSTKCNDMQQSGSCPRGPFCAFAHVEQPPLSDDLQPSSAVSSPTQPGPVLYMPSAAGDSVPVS
Technique: RNA Bind-n-Seq
Molecule type: RNA
Medium: in vitro
Concentration: not given
Setting: RNA with constant flanks, ends assumed
Baseline: input RNA pool
Reading: higher = stronger binding
Quantity: bound/input enrichment
Shared flanks, not repeated: GGGAGUUCUACAGUCCGACGAUC … CAACAGAGGAUUGAGCAUCA
Sequence = GACAGCGGAGAAGAGGUGGAUUUGGUUAAGGAAGCAGAUGUUCCCUCAGCUAUUAGCCUUCUCCGAUUUUUUCUUCAAGAACUUCCUGAACCUGUUAUCCCUGGCAGUUUACAUAUUCAC; value = 0.159 ratio
Sequence = AUUAAGCUUUAUGAAAACUUCAUCAGUGAGUUUGAGCACAGGGUAAACCCUCUGUCCCUGGCCGAAAUAAUUCUCCAUGUGGUUAGACAGAUGACCGAUCCUAAUGUGGCUCUUACUUUU; value = 0.281 ratio
Sequence = GAAUUUGGGCAGGUUUUGGCUUCCUGUUCUUUUGACCGAACAGCUGCUGUAUGGGAAGAAACCGCCGGAGAAUCAAAUGAUAAACUGCGAGGACAGAGCCACUGGGUUAAAAGGACAACU; value = 0.346 ratio
Sequence = CGUGGAGAUACAGACCAGGCCAGUAAUAUUUUGGCCAGCUUUGGUCUGUCUGCUAGAGACUCCGAUGAACUGAGUCGCUAUCCAGAGGACAAGAUUACUCCUGAGAACUUGCCCCAAAUU; value = 0.108 ratio
Sequence = AAAAGAGAAAAUGGUGCUAGAGACAAGUAGUUUAUUUAGUAAGCAGUGUUUUUAUUCCUCCGUCCGAUUUUAAGCUGCUUUUUGUCUUCAGAAGCUUUUAAAAAGAAAAGCGAAUUAGGU; value = 1.96 ratio
Sequence = GUCUCAUCUGUAUGCAUCUUAUGCAUGUGAUUCAAUAGACUAGAUCGAUUCUGUGUGGUUUAUCACCGUAGAUACACAAACCAGUCUUUAUUUUUUACUUAAGAAAAUAUAUAAGUGGAA; value = 0.37 ratio
Sequence = GAGUCCUAGGAUGUUUCUCUUGCCUCCUUCUUGCUUUUUUCCUUUCCCCCAGUAGAGACCCCGCAAAGCUUUACAAAGCCCCUGAAAGUAGAUCCCAGAGAGAAAGUUUGCAGUCAGGUG; value = 0.649 ratio
Sequence = CUCAGGUGUAAAAGCCACACGAAGAAAUGAGCUGUAAGCGGUGGCAUCACUUUGGAUACUCCGUUUAAAAGUAUAUGUGUGAUUUUCUAUGUUCCAAAACUAUCAUGAGUUUUUUGGCCC; value = 0.138 ratio

Study 6
Target: PABPC1L2, full length, GST fusion (mouse, UniProt A0ABA7IW68)
Technique: RNAcompete
Molecule type: RNA
Medium: in vitro
Concentration: 20 nM
Setting: 7-mer, probes averaged, single round
Baseline: mean of 7-mers
Reading: higher = stronger binding
Quantity: 7-mer Z-score
Target sequence (chain): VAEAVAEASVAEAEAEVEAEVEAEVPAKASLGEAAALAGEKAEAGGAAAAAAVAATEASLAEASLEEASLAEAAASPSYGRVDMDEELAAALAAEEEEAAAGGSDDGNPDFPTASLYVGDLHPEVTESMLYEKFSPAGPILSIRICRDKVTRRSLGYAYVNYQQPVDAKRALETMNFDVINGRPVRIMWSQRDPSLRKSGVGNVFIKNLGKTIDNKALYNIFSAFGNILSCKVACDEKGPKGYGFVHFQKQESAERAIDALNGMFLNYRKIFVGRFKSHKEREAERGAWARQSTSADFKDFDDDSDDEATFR
Sequence = AACCAGU; value = -0.0609
Sequence = UGUUAGG; value = -0.211
Sequence = AAGUAAG; value = 0.229
Sequence = GCAGACC; value = -0.0174
Sequence = UGAAGGU; value = -0.0518
Sequence = CAUCAAU; value = -0.213
Sequence = ACUGACA; value = 0.037
Sequence = GGGAUCU; value = 0.311

Study 7
Target: Eukaryotic initiation factor 4A-I (EIF4A1, Homo sapiens, UniProt P60842, residues 1-406, full length assumed)
UniProt P60842, sequence (whole entry, looked up): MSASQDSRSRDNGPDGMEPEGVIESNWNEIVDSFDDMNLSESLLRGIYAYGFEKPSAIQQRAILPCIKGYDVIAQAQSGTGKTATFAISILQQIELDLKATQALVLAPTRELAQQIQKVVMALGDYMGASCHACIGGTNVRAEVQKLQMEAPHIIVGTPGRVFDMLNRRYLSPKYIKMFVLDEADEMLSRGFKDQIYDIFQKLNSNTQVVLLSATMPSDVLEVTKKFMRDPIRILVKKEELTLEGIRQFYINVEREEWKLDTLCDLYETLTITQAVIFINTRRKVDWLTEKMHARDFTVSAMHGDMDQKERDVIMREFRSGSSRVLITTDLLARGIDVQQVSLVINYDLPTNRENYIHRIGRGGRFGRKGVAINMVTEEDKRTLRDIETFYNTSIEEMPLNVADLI
Technique: RNA Bind-n-Seq
Molecule type: RNA
Medium: in vitro
Concentration: 15 pmol
Setting: 4-mer, random 30-nt RNA, single round
With: 3 µM DMDA-PatA, 2 mM AMP-PNP
Baseline: input library
Reading: higher = stronger binding
Quantity: 4-mer enrichment
Sequence = CUUC; value = 0.551 fold
Sequence = UAUC; value = 0.851 fold
Sequence = CUAC; value = 0.76 fold
Sequence = AUAU; value = 1.15 fold
Sequence = GGUA; value = 1.52 fold
